Assay results gathered from unrelated publications.
Numbered parts are unrelated; each lists some results of a single study.
Chain of UniProt P07332 (whole entry, looked up): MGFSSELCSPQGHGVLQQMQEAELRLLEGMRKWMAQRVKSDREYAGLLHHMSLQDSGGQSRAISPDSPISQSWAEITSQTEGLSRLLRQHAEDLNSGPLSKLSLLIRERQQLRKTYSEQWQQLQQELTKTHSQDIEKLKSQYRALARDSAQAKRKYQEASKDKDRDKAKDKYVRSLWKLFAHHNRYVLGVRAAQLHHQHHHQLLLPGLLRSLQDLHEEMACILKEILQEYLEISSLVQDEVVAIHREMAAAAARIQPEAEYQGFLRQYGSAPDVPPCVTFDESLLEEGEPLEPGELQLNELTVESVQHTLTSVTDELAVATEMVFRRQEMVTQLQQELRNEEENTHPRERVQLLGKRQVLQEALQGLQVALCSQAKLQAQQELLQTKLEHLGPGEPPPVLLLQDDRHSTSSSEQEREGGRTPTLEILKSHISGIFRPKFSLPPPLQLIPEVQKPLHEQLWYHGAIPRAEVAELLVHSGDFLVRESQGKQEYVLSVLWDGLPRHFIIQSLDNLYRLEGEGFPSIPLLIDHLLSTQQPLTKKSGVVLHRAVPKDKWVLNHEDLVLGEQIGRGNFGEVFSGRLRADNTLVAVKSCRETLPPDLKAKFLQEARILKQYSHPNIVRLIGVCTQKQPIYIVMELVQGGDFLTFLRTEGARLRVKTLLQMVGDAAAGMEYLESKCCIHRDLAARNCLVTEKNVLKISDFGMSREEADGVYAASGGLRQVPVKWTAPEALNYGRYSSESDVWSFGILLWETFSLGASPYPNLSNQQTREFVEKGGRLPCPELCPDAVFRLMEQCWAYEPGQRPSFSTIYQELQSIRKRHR
Chain of UniProt Q12866 (whole entry, looked up): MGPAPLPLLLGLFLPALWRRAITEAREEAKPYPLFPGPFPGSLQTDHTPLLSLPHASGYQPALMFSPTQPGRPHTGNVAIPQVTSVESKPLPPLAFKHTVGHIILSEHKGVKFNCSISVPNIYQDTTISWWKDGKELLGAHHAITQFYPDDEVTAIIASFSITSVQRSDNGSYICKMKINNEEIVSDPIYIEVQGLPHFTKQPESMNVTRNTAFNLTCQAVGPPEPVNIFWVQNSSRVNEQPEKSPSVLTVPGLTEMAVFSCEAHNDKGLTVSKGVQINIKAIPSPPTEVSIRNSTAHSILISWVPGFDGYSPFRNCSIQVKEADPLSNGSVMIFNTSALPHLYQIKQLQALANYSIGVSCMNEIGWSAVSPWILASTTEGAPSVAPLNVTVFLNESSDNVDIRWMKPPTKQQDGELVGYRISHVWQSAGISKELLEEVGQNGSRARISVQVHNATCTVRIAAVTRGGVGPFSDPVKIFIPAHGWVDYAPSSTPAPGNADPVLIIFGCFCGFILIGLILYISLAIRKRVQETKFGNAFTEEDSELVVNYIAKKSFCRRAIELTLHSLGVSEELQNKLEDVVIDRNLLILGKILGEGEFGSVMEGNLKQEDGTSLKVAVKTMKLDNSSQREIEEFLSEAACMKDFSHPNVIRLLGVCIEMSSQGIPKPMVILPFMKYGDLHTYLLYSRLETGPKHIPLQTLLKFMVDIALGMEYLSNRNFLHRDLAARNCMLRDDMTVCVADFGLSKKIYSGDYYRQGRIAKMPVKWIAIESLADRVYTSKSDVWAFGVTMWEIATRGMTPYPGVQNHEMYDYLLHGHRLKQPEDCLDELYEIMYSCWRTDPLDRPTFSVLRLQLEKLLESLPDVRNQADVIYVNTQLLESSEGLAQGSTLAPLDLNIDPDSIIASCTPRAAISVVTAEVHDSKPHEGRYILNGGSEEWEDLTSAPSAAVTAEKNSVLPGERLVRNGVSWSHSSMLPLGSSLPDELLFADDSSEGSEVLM
Chain of UniProt P50750 (whole entry, looked up): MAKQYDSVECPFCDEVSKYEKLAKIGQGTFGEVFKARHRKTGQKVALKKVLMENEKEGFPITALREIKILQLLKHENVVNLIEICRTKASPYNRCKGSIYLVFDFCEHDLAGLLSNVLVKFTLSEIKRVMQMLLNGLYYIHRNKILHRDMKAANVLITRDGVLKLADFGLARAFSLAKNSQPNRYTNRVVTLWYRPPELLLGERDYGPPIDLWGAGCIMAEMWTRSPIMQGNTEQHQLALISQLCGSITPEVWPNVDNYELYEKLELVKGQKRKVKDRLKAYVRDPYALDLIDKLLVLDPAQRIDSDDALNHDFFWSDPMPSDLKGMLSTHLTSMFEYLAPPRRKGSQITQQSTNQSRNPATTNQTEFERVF
Chain of UniProt P31152 (whole entry, looked up): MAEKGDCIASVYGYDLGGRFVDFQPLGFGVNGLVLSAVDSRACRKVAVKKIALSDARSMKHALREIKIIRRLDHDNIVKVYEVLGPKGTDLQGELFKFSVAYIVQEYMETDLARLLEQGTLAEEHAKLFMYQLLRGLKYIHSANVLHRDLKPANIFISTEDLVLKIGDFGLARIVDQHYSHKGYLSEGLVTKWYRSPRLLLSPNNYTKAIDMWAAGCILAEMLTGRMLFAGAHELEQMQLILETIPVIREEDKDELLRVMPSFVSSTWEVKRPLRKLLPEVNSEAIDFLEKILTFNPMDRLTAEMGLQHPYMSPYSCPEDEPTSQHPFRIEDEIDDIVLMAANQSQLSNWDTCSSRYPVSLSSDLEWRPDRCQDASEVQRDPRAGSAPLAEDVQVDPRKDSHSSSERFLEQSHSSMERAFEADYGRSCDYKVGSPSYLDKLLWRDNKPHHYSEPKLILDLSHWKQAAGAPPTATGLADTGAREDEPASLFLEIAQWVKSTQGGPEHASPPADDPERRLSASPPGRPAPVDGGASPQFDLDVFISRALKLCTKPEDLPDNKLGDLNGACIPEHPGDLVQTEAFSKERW
Chain of UniProt O43683 (whole entry, looked up): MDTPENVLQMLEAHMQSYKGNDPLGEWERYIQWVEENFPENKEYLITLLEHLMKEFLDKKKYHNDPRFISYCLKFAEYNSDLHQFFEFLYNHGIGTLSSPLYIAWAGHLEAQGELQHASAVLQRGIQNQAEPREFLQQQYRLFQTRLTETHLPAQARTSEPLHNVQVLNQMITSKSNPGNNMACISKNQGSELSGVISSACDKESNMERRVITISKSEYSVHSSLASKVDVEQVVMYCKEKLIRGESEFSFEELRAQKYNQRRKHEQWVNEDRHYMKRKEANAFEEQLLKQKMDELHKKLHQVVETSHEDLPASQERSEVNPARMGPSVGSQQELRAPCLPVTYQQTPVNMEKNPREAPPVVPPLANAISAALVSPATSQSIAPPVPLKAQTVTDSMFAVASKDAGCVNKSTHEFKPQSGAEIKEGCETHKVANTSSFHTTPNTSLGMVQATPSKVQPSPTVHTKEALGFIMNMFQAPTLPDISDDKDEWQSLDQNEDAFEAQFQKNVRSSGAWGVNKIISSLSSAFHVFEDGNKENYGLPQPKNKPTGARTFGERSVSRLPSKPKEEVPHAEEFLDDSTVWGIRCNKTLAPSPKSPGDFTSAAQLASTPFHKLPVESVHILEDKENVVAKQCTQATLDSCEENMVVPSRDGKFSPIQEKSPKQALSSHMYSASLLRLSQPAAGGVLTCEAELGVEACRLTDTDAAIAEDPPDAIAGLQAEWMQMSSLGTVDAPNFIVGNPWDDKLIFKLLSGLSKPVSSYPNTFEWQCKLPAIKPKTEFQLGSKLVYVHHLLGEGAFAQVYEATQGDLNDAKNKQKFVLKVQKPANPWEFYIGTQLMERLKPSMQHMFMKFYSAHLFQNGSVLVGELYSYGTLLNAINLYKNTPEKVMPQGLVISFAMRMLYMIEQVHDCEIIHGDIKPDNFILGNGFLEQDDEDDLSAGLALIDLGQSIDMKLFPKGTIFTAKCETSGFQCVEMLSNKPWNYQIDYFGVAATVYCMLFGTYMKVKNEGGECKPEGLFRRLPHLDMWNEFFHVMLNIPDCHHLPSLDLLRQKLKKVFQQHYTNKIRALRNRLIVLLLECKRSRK
Chain of UniProt Q9HCP0 (whole entry, looked up): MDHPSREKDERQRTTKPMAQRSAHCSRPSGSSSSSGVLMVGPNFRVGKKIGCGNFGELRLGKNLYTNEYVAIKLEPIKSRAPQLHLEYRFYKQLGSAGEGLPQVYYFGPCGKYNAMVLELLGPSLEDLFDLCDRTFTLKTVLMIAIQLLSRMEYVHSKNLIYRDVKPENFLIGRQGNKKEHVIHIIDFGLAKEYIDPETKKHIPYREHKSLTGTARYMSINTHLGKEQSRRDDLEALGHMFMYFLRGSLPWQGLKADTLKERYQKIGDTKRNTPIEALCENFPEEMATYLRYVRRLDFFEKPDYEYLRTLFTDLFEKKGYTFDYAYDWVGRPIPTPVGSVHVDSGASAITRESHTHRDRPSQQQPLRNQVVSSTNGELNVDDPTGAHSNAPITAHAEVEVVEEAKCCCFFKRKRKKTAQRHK

Series 1
Target: Protein kinase C gamma type (PRKCG, Homo sapiens, UniProt P05129)
Effect on: enzyme activity
Mode: inhibitor
Concentration: 0.5 µM
Relative to: control
SMILES	remaining activity [%]
Cn1cc(/C=C2\C(=O)Nc3ccc(S(N)(=O)=O)cc32)c2ccccc21	106
CC(C)[C@H](CO)Nc1nc(Nc2cccc(Cl)c2)c2ncn(C(C)C)c2n1	98.2
CCC(=O)Nc1ccc2ncnc(Nc3cccc(Br)c3)c2c1	102
CC(=O)O/N=C1/C(c2c(O)[nH]c3cc(Br)ccc23)=Nc2ccccc21	103
COc1cc2ncnc(Nc3ccc(OCc4ccccc4)cc3)c2cc1OC	98.5
Cc1ccc(NC(=O)c2ccc(CN3CCN(C)CC3)cc2)cc1Nc1nccc(-c2cccnc2)n1	91.6
COc1ccc(Cl)cc1NC(=O)Nc1cc(C)nc2ccccc12	107
CCN1/C(=C/C(C)=O)Sc2ccc(OC)cc21	75.4
C[S+]([O-])c1ccc(-c2nc(-c3ccncc3)c(-c3ccc(F)cc3)[nH]2)cc1 (stereo not drawn)	90
O=C1NC(=O)/C(=C/c2ccc3nccnc3c2)S1	105

Series 2
Compound: C[C@H](c1ccc(F)cc1)N(Cc1cccc(C(=O)O)c1)C(=O)c1cnc2ccccc2c1
Effect on: cell-free assay
Technique: competition with immobilised ligand
Concentration: 1 µM
target	remaining binding [%]
Mitogen-activated protein kinase 4 (MAPK4, Homo sapiens, UniProt P31152)	93
Serine/threonine-protein kinase PAK 5 (PAK5, Homo sapiens, UniProt Q9P286)	93
Cyclin-dependent kinase 9 (CDK9, Homo sapiens, UniProt P50750)	89
Serine/threonine-protein kinase B-raf (BRAF, Homo sapiens, UniProt P15056)	90
Macrophage colony-stimulating factor 1 receptor (CSF1R, Homo sapiens, UniProt P07333)	100
Tyrosine-protein kinase JAK1, JH2 (JAK1, Homo sapiens, UniProt P23458)	100
Ribosomal protein S6 kinase alpha-5, C-terminal kinase domain (RPS6KA5, Homo sapiens, UniProt O75582)	100
Casein kinase I isoform gamma-1 (CSNK1G1, Homo sapiens, UniProt Q9HCP0)	91
Casein kinase I isoform gamma-2 (CSNK1G2, Homo sapiens, UniProt P78368)	100
Tyrosine-protein kinase Fes/Fps (FES, Homo sapiens, UniProt P07332)	100
Tyrosine-protein kinase Mer (MERTK, Homo sapiens, UniProt Q12866)	95
Mitotic checkpoint serine/threonine-protein kinase BUB1 (BUB1, Homo sapiens, UniProt O43683)	89
Death-associated protein kinase 2 (DAPK2, Homo sapiens, UniProt Q9UIK4)	88
Phosphatidylinositol 4,5-bisphosphate 3-kinase catalytic subunit beta isoform (PIK3CB, Homo sapiens, UniProt P42338)	100
Serine/threonine-protein kinase LATS1 (LATS1, Homo sapiens, UniProt O95835)	100
Focal adhesion kinase 1 (PTK2, Homo sapiens, UniProt Q05397)	93

Series 3
Target: RNA binding protein fox-1 homolog 2, RRM domain, GST-SBP tag (RBFOX2, Homo sapiens, UniProt O43251-10, residues 100-194)
Technique: RNA Bind-n-Seq
Molecule type: RNA
Matrix: in vitro
Concentration: 365 nM
Notes: natural RNA segment, single round, ends assumed
Relative to: no-protein control
Reading: higher = stronger binding
Shared flanks, not repeated: GGGAGUUCUACAGUCCGACGAUC … UGGAAUUCUCGGGUGCCAA
Construct (chain): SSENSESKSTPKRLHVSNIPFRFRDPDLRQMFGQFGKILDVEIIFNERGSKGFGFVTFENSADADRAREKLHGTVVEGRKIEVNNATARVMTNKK
Strand	RBNS enrichment (R)
CAGGACAUCUGUGGCCCUGAGCCGGCUCUGGUCCUCGGCCUUUCCCAGCCUUCCCACAUCUUCCCAGGCCAAGAUGCAGGGGGCAGGCUGAAGAGAAAUUUGUGUGUCCU	0.488
UUUAGGGUACUGUCCUGGUCAAAAUGACCUAAGGGGAAACCGUUGUUGUAAACCUCUUUAUUUUGGUGACUGUGACCACUUCUUUGUAGCCACCAAUUGUAGUGACCAGU	0.316
AAGACAGUGUGUAGCAGCCCUGAGCUUUUCAAUUCUACUGCUCUUUCUCUUCCCGCAGACAGUCCCACACAUCAGCCUCUACUCCUUCCACCACUGCAAACCCCCAAAUU	0.47
CCAAGUCUGGCACCAUGUUGGCCUCUUCAGGCCUGCUAGUCACUGGAAAUUGAGGUCCAUGGGGGAAAUCAAGGAUGCUCAGUUUAAGGUACACUGUUUCCAUGUUAUGU	0.287
CCUUCUAUUCCUUGUCCCCUCCCUGAGUUAGCUGGGCCUUGGUUCUGGGUCCCUGAGCAGGAGGAGGAGCUGUGAACAAGUCAGACCAAUAAAACCAGGUUUGCACUGCC	0.469
ACUGGGAGCCACCACCUCCGGCUCCUGGGUGACUUUACACCUAGAUGCUCCGAGAGCUACUGCAUCUGGGACUGUGUCCUUUCUCUGGGAGGCAGUCUUGUCACCUCCCA	0.763
UUCCAUGGGCCCCACCAUUUAUGUGUAGAAUUUGAAAUGGUUGUCACCUCUCUCUGAGGACAGAGCUUGAAGCCUCCACACCAGCUGCUGCUGGAGAUUCAAAGCCCAAC	0.37
ACUGUACUAGUUACUAUGAACAUGAAAAAAUAAUUAUCUUAGACUAUUUUAGAAGUAGGGUGUGAACAUAUAUUUUUAGAGGAAAAGCUGAUAGUCAUAGGGAAUAUAUG	0.477

Series 4
Target: Histone acetyltransferase KAT6A, winged helix 1, GST fusion (KAT6A, Homo sapiens, UniProt Q92794, residues 1-85)
Technique: protein binding microarray
Molecule type: double-stranded DNA, one strand shown
Matrix: in vitro
Concentration: not given
Notes: 8-mer, flanks averaged, mean of 2 arrays, mostly near background
Relative to: not given
Reading: higher = stronger binding
Residues (chain): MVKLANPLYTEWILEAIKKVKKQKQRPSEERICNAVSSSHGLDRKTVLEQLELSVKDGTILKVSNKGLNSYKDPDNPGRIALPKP
Strand	E-score
CCCTCCCA	-0.0428
GTAGGGAC	0.123
GAGCACAA	-0.231
ACGGTTCC	0.149
CGCCCAAC	0.0228
GCTCGAAC	-0.113
AGCGTCGC	0.382
ACATCACT	-0.12

Repeated from above (series 1):
SMILES	remaining activity [%]
CC(C)[C@H](CO)Nc1nc(Nc2cccc(Cl)c2)c2ncn(C(C)C)c2n1	98.2
CCN1/C(=C/C(C)=O)Sc2ccc(OC)cc21	75.4
COc1cc2ncnc(Nc3ccc(OCc4ccccc4)cc3)c2cc1OC	98.5
O=C1NC(=O)/C(=C/c2ccc3nccnc3c2)S1	105
C[S+]([O-])c1ccc(-c2nc(-c3ccncc3)c(-c3ccc(F)cc3)[nH]2)cc1 (stereo not drawn)	90
CCC(=O)Nc1ccc2ncnc(Nc3cccc(Br)c3)c2c1	102
COc1ccc(Cl)cc1NC(=O)Nc1cc(C)nc2ccccc12	107
